Results of several laboratories.
Each line is one published result; not all experiments were run side by side. ± marks the error that the study gave.
Organism: SARS-CoV-2

Cc1ccc(CNC(=O)c2ccc(Cl)cc2)cc1C(=O)N[C@H](C)c1cccc2ccccc12
EC50 (viral replication; Vero C1008, WK-521 ancestral Wuhan): 15 ± 0.6 µM

C[C@@H]1O[C@@H](n2c3ccccc3c3c4c(c5c6ccccc6[nH]c5c32)CNC4=O)C[C@@H](N)[C@H]1O
EC50 (viral replication, nucleocapsid staining; Calu-3, Delta B.1.617.2): 0.6 µM

Cc1ccc(OCCN(C)C)cc1C(=O)N[C@H](C)c1cc(-c2cnn(C)c2)cc(-c2cnn(C3CC3)c2)c1
EC50 (viral replication; Caco-2, icSARS-CoV-2-nLuc reporter): 0.35 µM

C[C@](C(=O)NC1CCC(F)(F)CC1)(c1cncnc1)N(C(=O)[C@H](F)Cl)c1ccc(OC(F)(F)F)cc1
EC50 (viral replication; Vero): 0.068 µM

Cc1ccc(CN)cc1C(=O)N[C@H](C)c1cccc2ccccc12
EC50 (viral replication; Vero C1008, WK-521 ancestral Wuhan): 15.9 ± 1.3 µM

COc1cc(O)c2c(c1)/C=C/C[C@H](O)[C@H](O)C(=O)/C=C\C[C@H](C)OC2=O
EC50 (viral replication; Vero E6, USA-WA1/2020): 2.3 µM

O=C(CN1CCCC2=CC3CC(CN4CCCCC34)C21)Nc1cc(Br)ccc1F (stereo not shown)
EC50 (pseudovirus entry; pseudovirus): 57.5 µM

COc1ccc2c(O[C@@H]3C[C@H]4C(=O)N[C@]5(C(=O)NS(=O)(=O)C6CC6)C[C@H]5/C=C\CCCCN(C)C(=O)[C@@H]4C3)cc(-c3nc(C(C)C)cs3)nc2c1C
EC50 (viral replication, plaque; Vero C1008; 16 h): 1.4 ± 0.09 µM

O=C(CCCCCCc1ccc(O)c(O)c1)c1c(O)cccc1O
EC50 (MTT; Vero E6/TMPRSS2, WK-521 ancestral): 2.9 µM

Clc1ccc(CN2CCCC3=CC4CC(CN5CCCCC45)C32)cc1 (stereo not shown)
EC50 (pseudovirus entry; pseudovirus): 116 µM

O=CN(CCCc1cn(-c2ccc(CN3CCOCC3)cc2)nn1)CCNc1ccnc2cc(Cl)ccc12
EC50 (viral replication; Vero 76, MUC-IMB-1/2020; 30 h): 1.8 ± 2.4 µM

CC(C)(C)[C@H](NC(=O)C(F)F)C(=O)N1C[C@H]2[C@@H]([C@H]1C(=O)N[C@H](C#N)C[C@@H]1CCCNC1=O)C2(C)C
EC50 (viral replication; Canada/VIDO 01/2020; added: efflux inhibitor CP-100356): 0.1 µM

CN(C)c1ccc(N(Cc2cc(Cl)cs2)C(=O)Cc2cncc3ccccc23)cc1
EC50 (dsRNA staining; Caco-2, Omicron BA.5): 0.7 µM

Cc1ccc(N2CCN(C)CC2)cc1C(=O)NC1(c2ccc3c4c(cccc24)CC3)CC1
EC50 (viral replication; Vero C1008, XBB.1): 0.45 µM

C=C1CCC2[C@](C)(CO)[C@H](O)CC[C@@]2(C)[C@@H]1/C=C/C1=CCOC1=O (stereo partly shown)
EC50 (plaque reduction; Vero E6, B.3; 72 h): > 10 µM

NCCNc1ccnc2cc(Cl)ccc12
EC50 (viral replication; Vero 76, MUC-IMB-1/2020; 30 h): 1.5 ± 1 µM

CCn1ccc(-c2cc(-c3cnn(C)c3)cc([C@@H](C)NC(=O)c3cc(OCCN(C)C)ccc3C)c2)n1
EC50 (viral replication; Caco-2, icSARS-CoV-2-nLuc reporter): 0.42 µM

CC(C)C[C@H](NC(=O)c1cc2c(OC(F)(F)F)cccc2[nH]1)C(=O)N[C@@H](C[C@@H]1CCNC1=O)C(=O)c1nc2ccccc2s1
EC50 (viral replication, RT-qPCR; VeroE6, WK-521): 2.9 ± 0.15 µM

O=C1CC(c2ccccc2)Oc2cc(O[C@@H]3O[C@H](CO)[C@@H](O)[C@H](O)[C@H]3O)ccc21 (stereo partly shown)
EC50 (viral replication; Vero): > 100 µM

CN(C)CCNC(=O)C[C@H](Cc1ccc(F)cc1)NC(=O)[C@@H](Cc1ccc(Cl)cc1Cl)NC(=O)[C@H](N)Cc1ccccc1C#N
EC50 (viral replication; USA-WA1/2020; 24 h): 1.2 µM

Cc1cc(O)ccc1CN(C)[C@H](C)c1cccc2ccccc12
EC50 (viral replication; Caco-2-hACE2, USA-WA1/2020; 24 h): > 60 µM

CNC(=O)C[C@H](Cc1ccc(F)cc1)NC(=O)[C@@H](Cc1ccc(Cl)cc1Cl)NC(=O)[C@@H](N)C[C@H]1CCNC1=O
EC50 (viral replication; USA-WA1/2020; 24 h): > 10 µM

COc1cccc(CN2CCCC3=CC4CC(CN5CCCCC45)C32)c1 (stereo not shown)
EC50 (pseudovirus entry; pseudovirus): 152 µM

CN(C)CCCCNC(=O)C[C@H](Cc1ccccc1)NC(=O)[C@@H](Cc1ccc(Cl)cc1Cl)NC(=O)[C@H](N)Cc1ccccc1C#N
EC50 (viral replication; USA-WA1/2020; 24 h): 3.1 µM

CC(C)(C)[C@H](NC(=O)C(F)(F)F)C(=O)N1C[C@H]2[C@@H]([C@H]1C(=O)N[C@H](C#N)C[C@@H]1CCNC1=O)C2(C)C
EC50 (dsRNA staining; Caco-2, Omicron XBB.1.5): 0.5 µM

O=C(CNc1cccc(F)c1)N1CCCC2=CC3CC(CN4CCCCC34)C21 (stereo not shown)
EC50 (pseudovirus entry; pseudovirus): 144 µM

C#CCCCNC(=O)CC(Cc1ccc(F)cc1)NC(=O)C(Cc1ccc(Cl)cc1Cl)NC(=O)C(N)Cc1ccccc1C#N (stereo not shown)
EC50 (viral replication; USA-WA1/2020; 24 h): 0.6 µM

Cc1cncc(C(=O)N2CCC(=C3c4ccccc4CS(=O)(=O)c4ccccc43)CC2)c1
EC50 (viral replication; USA-WA1/2020): 0.042 µM

C=CCn1c(C)cc(C(=O)COn2nnc3ccc(S(=O)(=O)N(C)C)cc32)c1C
EC50 (viral replication): > 100 µM

Cc1cc(C)cc(NC(=O)N2CCCC3=CC4CC(CN5CCCCC45)C32)c1 (stereo not shown)
EC50 (pseudovirus entry; pseudovirus): 151 µM

Cc1ccc(N2CC(N3CCC(C)(O)CC3)C2)cc1C(=O)NC1(c2ccc3c4c(cccc24)CC3)CC1
EC50 (viral replication; Vero C1008, XBB.1): 0.169 µM

CO/C1=C\C(C)=C\[C@@H](C)[C@@H](O)[C@@H](C)C/C(C)=C/C=C/[C@H](OC)[C@@H]([C@@H](C)[C@@H](O)[C@H](C)C(=O)/C=C/[C@H](C)[C@H](O)C(C)C)OC1=O
EC50 (viral replication, refers to: nucleocapsid protein; Calu-3, Omicron BA.2): 0.0046 µM

N#C[C@@]1(c2ccc3c(N)ncnn23)O[C@H](CO)[C@@H](O)[C@H]1O
EC50 (viral replication; 1 h): 3.37 µM

O=C(NC1CCC(F)(F)CC1)C(c1cncnc1)N(C(=O)C(F)Cl)c1ccc(-c2cncs2)cc1 (stereo not shown)
EC50 (viral replication; Vero): 2.15 µM

Cc1ccc(O)cc1CN(C)[C@H](C)c1cccc2ccccc12
EC50 (viral replication; Caco-2-hACE2, USA-WA1/2020; 24 h): ≤ 10 µM

CC(C)CCC1=C(O)C(=O)c2ccccc2C1=O
EC50 (viral replication; Calu-3; 48 h): 1.8 ± 0.2 µM

Cc1ccc(OCCN(C)C)cc1C(=O)N[C@H](C)c1cc(-c2cnn(C)c2)cc(-c2cncs2)c1
EC50 (viral replication; Caco-2, icSARS-CoV-2-nLuc reporter): 0.58 µM

CC(C)[C@H](NC(=O)c1ccccc1[Se][Se]c1ccccc1C(=O)N[C@H](C(=O)O)C(C)C)C(=O)O
EC50 (viral replication, RT-qPCR; Vero; 48 h): 32 µM

CN(C)c1ccc(N(Cc2cc(Cl)cs2)C(=O)Cc2cncc3cccc(O)c23)cc1
EC50 (dsRNA staining; Caco-2, Omicron BA.5): 0.043 µM

Cc1ccc(CNC(=O)c2cccc(Br)c2)cc1C(=O)N[C@H](C)c1cccc2ccccc12
EC50 (viral replication; Vero C1008, WK-521 ancestral Wuhan): > 100 µM

CN(C)S(=O)(=O)c1ccc2c(c1)N(CCCN1CCC(CCO)CC1)c1ccccc1S2
EC50 (viral replication, GFP plate reader screen; cell-based): 13.8 µM

CNC(=O)C[C@H](Cc1ccc(F)cc1)NC(=O)[C@@H](Cc1ccc(F)cc1F)NC(=O)[C@H](N)Cc1ccccc1C#N
EC50 (viral replication; USA-WA1/2020; 24 h): 2 µM

NC(=O)CCC1CCCN(C(=O)c2c[nH]n3c2nc(=O)c2ccccc23)C1 (stereo not shown)
EC50 (viral replication): > 100 µM

COC(=O)Cn1[se]c2ccccc2c1=O
EC50 (viral replication, RT-qPCR; Vero; 48 h): 15 µM

CCn1ccc(-c2cc(-c3cnn(C)c3)cc([C@@H](C)NC(=O)c3cc(OCCN(C)C)ccc3C)c2)n1
EC50 (viral replication, plaque; recombinant E167G): 3 µM

O=C(CN1CCCC2=CC3CC(CN4CCCCC34)C21)Nc1ccc(Br)cc1 (stereo not shown)
EC50 (pseudovirus entry; pseudovirus): 62.8 µM

Cc1ccc(CNC(=O)c2ccccc2Br)cc1C(=O)N[C@H](C)c1cccc2ccccc12
EC50 (viral replication; Vero C1008, WK-521 ancestral Wuhan): 59.2 ± 4.4 µM

COCCCCNC(=O)CC(Cc1ccc(F)cc1)NC(=O)C(Cc1ccc(Cl)cc1Cl)NC(=O)C(N)Cc1ccccc1C#N (stereo not shown)
EC50 (viral replication; USA-WA1/2020; 24 h): 0.4 µM

Cc1ccc(CNC(=O)c2cccc(Br)c2F)cc1C(=O)N[C@H](C)c1cccc2ccccc12
EC50 (viral replication; Vero C1008, WK-521 ancestral Wuhan): 70.7 ± 8 µM

CN(C)CCCCNC(=O)C[C@H](Cc1ccc(F)cc1)NC(=O)[C@@H](Cc1ccccc1Cl)NC(=O)[C@H](N)Cc1ccccc1C#N
EC50 (viral replication; USA-WA1/2020; 24 h): > 10 µM

CC(=O)OC1(C)CC(C=C(C)CCC=C(C)C)OC2(C=C(CO)C3CC(=O)C(C)=CC3O2)C1 (stereo not shown)
EC50 (viral replication, refers to: nucleocapsid protein; Calu-3, Delta B.1.617.2): 4.9 µM

CC1CCc2c(sc3ncnc(Sc4nnc(CN5CCCC5)o4)c23)C1 (stereo not shown)
EC50 (viral replication): > 100 µM

Excerpt of the above:
COc1cc(O)c2c(c1)/C=C/C[C@H](O)[C@H](O)C(=O)/C=C\C[C@H](C)OC2=O
EC50 (viral replication; Vero E6, USA-WA1/2020): 2.3 µM

Cc1ccc(N2CCN(C)CC2)cc1C(=O)NC1(c2ccc3c4c(cccc24)CC3)CC1
EC50 (viral replication; Vero C1008, XBB.1): 0.45 µM

O=C(CN1CCCC2=CC3CC(CN4CCCCC34)C21)Nc1ccc(Br)cc1 (stereo not shown)
EC50 (pseudovirus entry; pseudovirus): 62.8 µM

Cc1cc(O)ccc1CN(C)[C@H](C)c1cccc2ccccc12
EC50 (viral replication; Caco-2-hACE2, USA-WA1/2020; 24 h): > 60 µM

CN(C)CCNC(=O)C[C@H](Cc1ccc(F)cc1)NC(=O)[C@@H](Cc1ccc(Cl)cc1Cl)NC(=O)[C@H](N)Cc1ccccc1C#N
EC50 (viral replication; USA-WA1/2020; 24 h): 1.2 µM
